Measured values pooled from the literature.
Every numbered part comes from another study and shows a few of its results, in no order.

Set 1
Target: TAR DNA-binding protein 43, full length, His tag (TARDBP, Homo sapiens, UniProt Q13148, residues 1-414)
Technique: RNA Bind-n-Seq
Molecule type: RNA
Sample: in vitro
Concentration: 20 nM
Notes: 6-mer, flanks averaged, single round
Added: 150 mM LiCl
Reference: input library
Reading: higher = stronger binding
| Oligonucleotide | 6-mer enrichment (R) |
| --- | --- |
| UAUCUC | 0.882 |
| CUAGUC | 0.835 |
| CGUGUG | 1.56 |
| GUGCCU | 1.09 |
| UAAACC | 0.854 |
| UUCACU | 0.884 |
| AUUAUU | 1.09 |
| UGUUCC | 1.04 |
| CGACAA | 0.788 |
| UAGUAC | 0.86 |
| AGGUCG | 1 |
| CCUUCG | 0.879 |
| GGAGGU | 1.23 |
| UGACUA | 0.862 |
| AAUAAU | 1.52 |
| UCUGCG | 0.926 |
| AGUCAC | 0.823 |
| CGACGG | 0.879 |
| CUCUGG | 0.882 |
| UAUACA | 0.875 |
| GCAAAU | 0.908 |

Set 2
Target: Histone acetyltransferase KAT6A, winged helix 1, GST fusion (KAT6A, Homo sapiens, UniProt Q92794, residues 1-85)
Technique: protein binding microarray
Molecule type: double-stranded DNA, one strand shown
Sample: in vitro
Concentration: not given
Notes: 8-mer, flanks averaged, mean of 2 arrays, mostly near background
Reference: not given
Reading: higher = stronger binding
Residues (chain): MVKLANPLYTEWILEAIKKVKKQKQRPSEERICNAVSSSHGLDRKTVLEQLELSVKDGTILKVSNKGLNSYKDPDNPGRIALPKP
| Oligonucleotide | E-score |
| --- | --- |
| GCACCGAA | 0.0275 |
| CCGGGAGC | 0.247 |
| GATTAGCC | 0.048 |
| GACCGACC | 0.0983 |
| GTGTTAAA | -0.15 |
| AGCGTGAG | 0.0892 |
| TCAAGTCA | -0.181 |
| AAGTCAGA | -0.205 |
| ATAGGCTA | -0.15 |
| CAGCTTCA | -0.244 |
| CCCCCACA | -0.235 |
| ACGGCAAC | 0.349 |
| AGCTGAGG | -0.248 |
| GATGTGTA | -0.078 |
| CCCAGCAC | 0.0497 |
| AACAGTGC | 0.00414 |
| ACTTAGCG | 0.128 |
| CTTAGTTC | -0.0549 |
| ACACCGGC | 0.34 |

Set 3
Target: Prothrombin, mature alpha-thrombin (F2, Homo sapiens, UniProt P00734)
Technique: aptamer microarray, sandwich
Molecule type: DNA with 2'F-ANA
Sample: in vitro
Concentration: 200 nM
Notes: whole 15-mer aptamer, many near background
Added: Cy3 exosite-II aptamer, 400 nM
Reading: higher = stronger binding
Oligonucleotide: GGTTGGTGTGGTTGG
| Modification | mean fluorescence intensity [a.u.] |
| --- | --- |
| 2'F-ANA at 1 2 4 7 11 12 14 15 | 58.5 |
| 2'F-ANA at 1 4 6 8 13 15 | 87.8 |
| 2'F-ANA at 1 4 8 9 10 11 | 52.6 |
| 2'F-ANA at 1 5 6 7 9 10 11 15 | 50.6 |
| 2'F-ANA at 1 4 5 7 10 11 13 14 | 54.3 |
| 2'F-ANA at 1 5 6 7 8 9 12 15 | 123 |
| 2'F-ANA at 1 4 6 7 10 13 14 15 | 55.6 |
| 2'F-ANA at 1 2 3 4 6 7 8 9 10 12 14 15 | 74.2 |
| 2'F-ANA at 3 7 9 11 | 1110 |
| 2'F-ANA at 1 3 4 7 8 9 11 13 14 | 72.6 |
| 2'F-ANA at 1 2 7 8 9 13 15 | 145 |
| 2'F-ANA at 1 2 3 6 9 11 13 15 | 122 |
| 2'F-ANA at 1 2 3 5 9 10 12 13 | 52.8 |
| 2'F-ANA at 4 5 7 12 14 15 | 47.1 |
| 2'F-ANA at 3 4 6 7 8 10 14 | 195 |
| 2'F-ANA at 1 2 4 6 9 12 13 | 154 |
| 2'F-ANA at 3 4 7 9 12 15 | 945 |
| 2'F-ANA at 2 10 11 12 14 | 99.6 |
| 2'F-ANA at 6 10 11 13 | 177 |
| 2'F-ANA at 1 3 5 6 7 8 14 | 57.1 |
| 2'F-ANA at 2 5 7 8 9 10 13 | 63.7 |

Set 4
Target: Interferon regulatory factor 5, full length, phosphomimetic (IRF5, Homo sapiens, UniProt Q13568-2, residues 1-514, S451D/S453D/S456D/S462D)
Technique: protein-binding microarray
Molecule type: double-stranded DNA, one strand shown
Sample: in vitro
Concentration: 940 nM top
Notes: 60-bp whole probe
Added: salmon DNA 0.4 mg/ml
Reference: random background probes
Reading: higher = stronger binding
Constant ends, left off below: GCCTAGCAC … GTCTTGATTCGCTTGACGCTGCTG
| Oligonucleotide | fitted relative affinity [z-score] |
| --- | --- |
| TCAAGTCTCATATTTATACTGTGCTAG | 1.98 |
| GGCGGTATCGACTTTCGGGACGTGCTA | 4.97 |
| CTTTTTTTCTTTTATTAGTGGTGCTAG | 2.28 |
| TTAGATTTCAGTTCCGCTTAGTGCTAG | 1.72 |
| TTAAGTCTCCTTCTCCTTTAGTGCTAG | 0.965 |
| GACGATTTCAGTATCGAGACGTGCTAG | 2.69 |
| TACGATTTCAGTTCCGAGACGTGCTAG | 0.628 |
| TATTTTCCTTTAAACTTTTAGTGCTAG | 1.18 |
| TTGGATATCAGTTTCGATTAGTGCTAG | 8.12 |
| GGCGGTTTCGGTTTCGGGACGTGCTAG | 14.6 |
| TTAGATCTCAGTCTCGATTCGTGCTAG | 2.75 |
| GTCTCTATCAAAAATACAAAAGTGCTA | 2.13 |
| TTAGGTTACCTTTCCCTTTAGTGCTAG | 0.533 |
| TCATCTTCTCCTCTAGGACTGTGCTAG | 0.255 |
| TTAGATTTGAGTATCGATTAGTGCTAG | 4.6 |
| TTAGGTATCCTAGTGCTTTAGTGCTAG | -0.317 |
| TCCAATTGTCCTTTCACTTTGTGCTAG | 1.24 |
| TCACATCTCCAGTAGCCTACTGTGCTA | 0.675 |
| GACGGTCTCGGTCTCGGGCCGTGCTAG | 3.57 |
| GTTCTTATCCTTCCCCTCTAGTGCTAG | 1.62 |
| AGTGATAACTTTTTTTTTTCGTGCTAG | 0.482 |
| TTAGGTATCGGTCTCGGTTCGTGCTAG | 10.1 |
| TTAGGTATCGACACTGGCTTAGTGCTA | 4.97 |
| GTCGGTTTCGGTCTCGGGACGTGCTAG | 16.3 |
| TTAGGTATCGGGATTGGGTTAGTGCTA | 4.68 |

Set 5
Target: Ras GTPase-activating protein-binding protein 1, RRM domain (G3BP1, Homo sapiens, UniProt Q13283)
Sequence of UniProt Q13283 (whole entry, looked up): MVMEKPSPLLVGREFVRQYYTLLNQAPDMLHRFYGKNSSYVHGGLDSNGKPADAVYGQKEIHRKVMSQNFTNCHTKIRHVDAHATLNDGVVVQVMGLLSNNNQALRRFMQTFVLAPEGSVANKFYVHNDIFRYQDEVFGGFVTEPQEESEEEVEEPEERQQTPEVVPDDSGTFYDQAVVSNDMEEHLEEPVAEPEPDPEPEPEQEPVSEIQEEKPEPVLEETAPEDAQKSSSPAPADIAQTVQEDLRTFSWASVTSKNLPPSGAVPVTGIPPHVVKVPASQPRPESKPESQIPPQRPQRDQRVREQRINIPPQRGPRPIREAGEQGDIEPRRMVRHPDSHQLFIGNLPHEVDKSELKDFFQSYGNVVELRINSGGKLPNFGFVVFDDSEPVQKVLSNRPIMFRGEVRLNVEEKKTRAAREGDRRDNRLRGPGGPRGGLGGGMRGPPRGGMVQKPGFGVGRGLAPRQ
Technique: RNA Bind-n-Seq
Molecule type: RNA
Sample: in vitro
Concentration: 1 µM
Notes: whole 134-nt RNA, ends assumed
Added: 150 mM KCl
Reference: input library
Reading: higher = stronger binding
Constant ends, left off below: GGGAGUUCUACAGUCCGACGAUC … UGGAAUUCUCGGGUGUCAAGG
| Oligonucleotide | log2 enrichment |
| --- | --- |
| AGUCCUGUGCUACACAUCGUAUGUACCGAAUCGGGUUUGGGAAAAAGGGAAAAAGGGAAAGUAUUAUGUUACGCCGUUCGGAUCUGCACU | 0.464 |
| GUCCUGUGCUACACAUCGUAUGUACCGAAUCGGGAAAGGGUUUUUUUGGGUUUUUGGGAAAGUAUUAUGUUACGCCGUUCGGAUCUGCAC | 0.103 |
| CCUCAAGUCCUGUGCUACACAUCGUAUGUACCGAAUCGGGCGGGGCGGGCGGAAAGUAUUAUGUUACGCCGUUCGGAUCUGCACUUCCAG | 0.0677 |
| GGAGGAAGUAAAAACAAAUGGAAAUGCUUCGGAUAGUGGCAGGGGUGGGGGUUGCUAAGGAAAGGGUGGGAUGGGAGUGGGUAAAGAGUU | 1.21 |
| UAACUUUAGAGGAGGAUCUGAUGGAUAUGGCAGUGGACGUGGAUUUGGGGAUGGCUAUACUGGGUAUGGAGGAGGACCUGGAGGUGGCAA | -0.384 |
| UAACUUUAGAGGAGGAUCUGAUGGAUAUGGCAGUGGACGUGGAUUUGGGGAUGGCUAUAAUGGGUAUGGAGGAGGACCGGGAGGUGGCAA | -0.232 |
| CUGUGCUACACAUCGUAUGUACCGAAUCGGGGAAAAAAAGGGGUUUUUUUGGGGAAAGGGGAAAGUAUUAUGUUACGCCGUUCGGAUCUG | 0.579 |
| CCUCAAGUCCUGUGCUACACAUCGUAUGUACCGAAUCGGGGUGGUGGUGGGGAAAGUAUUAUGUUACGCCGUUCGGAUCUGCACUUCCAG | -0.301 |
| CCUCAAGUCCUGUGCUACACAUCGUAUGUACCGAAUCGUGUGUGUGUGUGUGUAAAGUAUUAUGUUACGCCGUUCGGAUCUGCACUUCCA | -0.0925 |
| UCAAGUCCUGUGCUACACAUCGUAUGUACCGAAUCGGAAAAAGGAAAGGUUUGGAAAGUAUUAUGUUACGCCGUUCGGAUCUGCACUUCC | -0.139 |
| CACAGACAACACGCACCCACACAGACACAGAGGGAAGGGGUUGGGAUGUGGACAGGGUGCACAGCAGGGCGGGGUAGGACCCCAGCCCCU | 0.14 |
| GUCCUGUGCUACACAUCGUAUGUACCGAAUCGGGUUUUUGGGUUUUUGGUUUUUGGGGAAAGUAUUAUGUUACGCCGUUCGGAUCUGCAC | -0.121 |
| CCUCAAGUCCUGUGCUACACAUCGUAUGUACCGAAUCGGCGGGGCGGGGCGGGAAAGUAUUAUGUUACGCCGUUCGGAUCUGCACUUCCA | 0.0428 |
| AAGUCCUGUGCUACACAUCGUAUGUACCGAAUCGGUUUGGAAAAAAAGGAAAAAGGAAAGUAUUAUGUUACGCCGUUCGGAUCUGCACUU | -0.192 |

A few entries again (set 3):
| Modification | mean fluorescence intensity [a.u.] |
| --- | --- |
| 2'F-ANA at 6 10 11 13 | 177 |
| 2'F-ANA at 1 4 5 7 10 11 13 14 | 54.3 |
| 2'F-ANA at 1 3 4 7 8 9 11 13 14 | 72.6 |
| 2'F-ANA at 1 2 4 6 9 12 13 | 154 |
| 2'F-ANA at 1 2 3 6 9 11 13 15 | 122 |
| 2'F-ANA at 1 5 6 7 9 10 11 15 | 50.6 |
| 2'F-ANA at 1 4 6 8 13 15 | 87.8 |
| 2'F-ANA at 1 2 3 5 9 10 12 13 | 52.8 |
| 2'F-ANA at 1 4 8 9 10 11 | 52.6 |
| 2'F-ANA at 2 5 7 8 9 10 13 | 63.7 |
| 2'F-ANA at 1 2 7 8 9 13 15 | 145 |
| 2'F-ANA at 3 4 6 7 8 10 14 | 195 |
| 2'F-ANA at 1 3 5 6 7 8 14 | 57.1 |
| 2'F-ANA at 1 2 3 4 6 7 8 9 10 12 14 15 | 74.2 |
